Results pooled from the literature.
Numbered parts are unrelated; each lists some results of a single study. Positions count from the first letter of the parent shown.

Series 1
Target: Ras GTPase-activating protein-binding protein 1, RRM domain (G3BP1, Homo sapiens, UniProt Q13283)
Chain of UniProt Q13283 (whole entry, looked up): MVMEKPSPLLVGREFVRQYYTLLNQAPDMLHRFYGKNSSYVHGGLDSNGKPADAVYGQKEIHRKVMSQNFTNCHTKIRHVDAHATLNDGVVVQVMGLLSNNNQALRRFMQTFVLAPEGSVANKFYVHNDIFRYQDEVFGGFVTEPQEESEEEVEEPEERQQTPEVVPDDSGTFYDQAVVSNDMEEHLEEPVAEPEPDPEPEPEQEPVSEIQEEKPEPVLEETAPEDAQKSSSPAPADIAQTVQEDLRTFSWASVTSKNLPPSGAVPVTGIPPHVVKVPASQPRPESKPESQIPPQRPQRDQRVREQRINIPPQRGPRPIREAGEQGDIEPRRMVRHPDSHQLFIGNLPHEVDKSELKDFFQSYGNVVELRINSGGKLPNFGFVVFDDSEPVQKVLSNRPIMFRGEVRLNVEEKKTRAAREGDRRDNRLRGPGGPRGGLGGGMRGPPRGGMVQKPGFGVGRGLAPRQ
Method: RNA Bind-n-Seq
Form: RNA
Matrix: in vitro
Concentration: 1 µM
Notes: whole 134-nt RNA, ends assumed
Together with: 150 mM KCl
Relative to: input library
Direction: higher = stronger binding
Strand | log2 enrichment
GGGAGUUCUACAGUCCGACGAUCAAGUCCUGUGCUACACAUCGUAUGUACCGAAUCGGGAGGGUUUGGGUUUUUUUGGGAAAGUAUUAUGUUACGCCGUUCGGAUCUGCACUUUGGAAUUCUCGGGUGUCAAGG | 0.387
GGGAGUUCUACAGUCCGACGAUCCCUGUGCUACACAUCGUAUGUACCGAAUCGGGUUUUUUGGGGUUUUUUGGGUUUUUUGGGGAAAGUAUUAUGUUACGCCGUUCGGAUCUGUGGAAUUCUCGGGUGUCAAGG | -0.283
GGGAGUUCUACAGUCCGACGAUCAAGUCCUGUGCUACACAUCGUAUGUACCGAAUCGGGCCCCGGGCCCCGGCCCCGGGGAAAGUAUUAUGUUACGCCGUUCGGAUCUGCACUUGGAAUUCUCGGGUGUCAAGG | -0.839
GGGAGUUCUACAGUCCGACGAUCUGUGCUACACAUCGUAUGUACCGAAUCGGGCCCCCCCGGGGCCCCCCCGGGGCCCCCCCGGGAAAGUAUUAUGUUACGCCGUUCGGAUCUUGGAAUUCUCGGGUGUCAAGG | -0.569
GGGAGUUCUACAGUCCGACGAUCUCAAGUCCUGUGCUACACAUCGUAUGUACCGAAUCGGUUUGGGUUUGGGUUUGGGAAAGUAUUAUGUUACGCCGUUCGGAUCUGCACUUCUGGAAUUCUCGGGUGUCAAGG | -0.239
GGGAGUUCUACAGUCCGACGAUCUAACUUUAGAGGAGGAUCUGAUGGAUAUGGCAGUUGACGUGGAUUUGGGGAUGGCUAUAAUGGGUAUGGAGGAGGACCUGGAGGUGGCAAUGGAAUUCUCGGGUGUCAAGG | -0.618
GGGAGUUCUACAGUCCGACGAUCAACACUCAAACCACCAUCAAGCUUUUCCAGGAAUGCUGUCCUCAUUCCACUGACAGAGUUGUUCUUAUUGGAGGAAAACCCGAUAGGGUUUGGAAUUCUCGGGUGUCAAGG | -0.168
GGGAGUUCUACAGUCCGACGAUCUAACUUUAGAGGAGGAUCUGAUGGAUAUGGCAGUGGACGUGGAUUUGGGGAUGGCUAUAAUGGGUAUGGAGGAUGACCUGGAGGUGGCAAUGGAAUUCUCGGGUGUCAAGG | -0.45
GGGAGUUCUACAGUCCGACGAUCAAGUCCUGUGCUACACAUCGUAUGUACCGAAUCGGGAAAAGGGGAAAAGGAAAAGGAAAGUAUUAUGUUACGCCGUUCGGAUCUGCACUUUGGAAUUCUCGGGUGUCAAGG | -0.217
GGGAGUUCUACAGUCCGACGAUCCCUGUGCUACACAUCGUAUGUACCGAAUCGGGGUUUUUUUGGGGAAAGGGGAAAAAGGGGAAAGUAUUAUGUUACGCCGUUCGGAUCUGCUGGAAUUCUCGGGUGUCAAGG | 0.236
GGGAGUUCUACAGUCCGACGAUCAAGUCCUGUGCUACACAUCGUAUGUACCGAAUCGGUGGUUUUUUUGGAAAAAAAGGAAAGUAUUAUGUUACGCCGUUCGGAUCUGCACUUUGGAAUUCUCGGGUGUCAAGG | -0.203
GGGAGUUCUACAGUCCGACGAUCUGGCCCUGGUGGCAUGCGGGGAGGAAGAGGUGGCCUCAUGGAUCGUGGUGGUCCCGGUGGAAUGUUCAGAGGUGGCCGUGGUAGAGACAGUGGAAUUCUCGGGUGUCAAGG | 2.52
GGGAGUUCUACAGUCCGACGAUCGCAAGAAGUAAAAACAAAUGGAAAUGCUUCGGAUAGUGGCAGGGGUGGGGGUUGCUAAGGAAAGGGUGGGAUGGGAGUGGGUAAAGAGUUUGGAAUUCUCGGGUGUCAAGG | 0.834
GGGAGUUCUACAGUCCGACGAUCUAACUUUAGAGGAGGAUCUGAUGGAUAUGGCAUUGGACGUGGAUUUGGGGAUGGCUAUAAUGGGUAUGGAGGAGGACCUGGAGGUGGCAAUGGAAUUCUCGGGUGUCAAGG | -0.694

Series 2
Target: CCNB2, cyclin fold, Cln2 fusion (human)
Method: yeast growth competition, sequencing
Matrix: yeast
Notes: weak parent motif
Relative to: not given
Direction: higher = stronger binding
Starting sequence: DBF4B docking peptide (human); LGYLYLLLTQSLW
Change | normalised enrichment score
LGYLYLLATQSLW [L8A] | 0.592
LGYLYLLLTASLW [Q10A] | 0.679
LGYLALLLTQSLW [Y5A] | 0.852
LGYLYLLLAQSLW [T9A] | 0.598
LAYLYLLLTQSLW [G2A] | -0.0611
LGYAYLLLTQSLW [L4A] | 0.22
AGYLYLLLTQSLW [L1A] | 0.271

Series 3
Target: RNA binding protein fox-1 homolog 2, RRM domain, GST-SBP tag (RBFOX2, Homo sapiens, UniProt O43251-10, residues 100-194)
Method: RNA Bind-n-Seq
Form: RNA
Matrix: in vitro
Concentration: 365 nM
Notes: natural RNA segment, single round, ends assumed
Relative to: no-protein control
Direction: higher = stronger binding
Construct (chain): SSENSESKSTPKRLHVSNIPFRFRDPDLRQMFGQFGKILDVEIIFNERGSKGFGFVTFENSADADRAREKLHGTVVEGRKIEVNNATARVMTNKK
Strand | RBNS enrichment (R)
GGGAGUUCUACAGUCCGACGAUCUGUUAACCAACACCCCCAAGUGACUGACACAGGUGGUCUAAAAAUUACUUUUCUAGAAACACCAUUCUGGAAGUUUGGCUGCCCACAGGCAGGAGGAGAAGCAUGAAGAGUGGAAUUCUCGGGUGCCAA | 3.39
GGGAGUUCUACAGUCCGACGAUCAUCUAAGUUGUGGUUCUUAGCCUGUCCCAGGAACAGCAGCAUGGGAGGCUAGGAACUUAACAGAAAUGAGGAUUCUUGGUUCUCACCCCAAACCUACUUAAUCAGAAACCUGGAAUUCUCGGGUGCCAA | 0.507
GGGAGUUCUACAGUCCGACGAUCCGCUGUCCAAGAAGUGGCUCCCCAAAGUAUAAGUGCGGGUGAGGUUUACUGAUACCCCACAGUGGAAGGCAUUUCUUCCAGAUAUUUUCCAGAUACCUUGGCCGCCAAACUGGAAUUCUCGGGUGCCAA | 0.544
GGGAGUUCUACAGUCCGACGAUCCAUAUAGAUUAAACAAAAUUUUUAUCUUUUUUCAAGAAUAUAGCUGGCUAUCUUUAAGAAAGAUGAUAUAUCCUAGUUUUGAAAGUAAUUUUCUUUUUUCUUUCUAGCAUUGGAAUUCUCGGGUGCCAA | 0.913
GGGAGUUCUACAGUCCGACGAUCGAAAUGAUGGCAAAACGUCAAACUCUUAUUUCAGAGCUUCAUGAAUUUAGUUAGACUAAACAUAAUUCUUUAAGUUCAACCUAAAGGGCUGAGAUCAAUAAAUUUAACACUGGAAUUCUCGGGUGCCAA | 0.321
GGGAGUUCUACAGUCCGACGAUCACUAGCACUAAUUUUAUUUGCAAUAUUUUUCUAUAAAACAAGUAGCUCUUGGAAAAGAGGUUUUCUUUUCUAAGCCGCCGUUCGUGACCUCUGACCUCUGGUUCUAUUUUUGGAAUUCUCGGGUGCCAA | 0.258
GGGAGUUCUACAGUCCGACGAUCCCUGGGCGACAGAACGAGACGCCAUCAAUAAAUAAAUAAAUAAAGUAAAGUAAAAAACCUAUUAAAUUGAGGCUAGAGCUGGAGAUGUAAUUGGUUUUUGAGAAACAUUAUGGAAUUCUCGGGUGCCAA | 0.544
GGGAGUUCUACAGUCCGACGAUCUUCUGAAGAUUUUUUUGAAGAUUAAUUUAUACCCUAUAAAAUAAAACUUGUUAGCUUCGAUGAAGUCACUUCAUCUUCUCUCCUGCCUUAUUUUUUUAAAUAAGUUUUUAUGGAAUUCUCGGGUGCCAA | 0.942
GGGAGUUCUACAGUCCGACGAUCAGCCCAUGGAGCAGGGAUGUCACGUCUUGAAAAGCCUAUUAGAUGUUUUACAAAUUUAAUUUUGCAGAUUAUUUUAGUCUGUCAUCCAGAAAAUGUGUCAGCAUGCAUAGUGGAAUUCUCGGGUGCCAA | 7.12
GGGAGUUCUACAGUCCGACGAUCAUGGUACCCAGAGUGGGCUGUGGUGGUCUGUGAGGUAACCAAGCCCAUGUCUGGCAGAUGAGGGCUGUUUGCCCUUUUCUGUGCCAAUGAGUGCCCUUUUCUGGCACUCUUGGAAUUCUCGGGUGCCAA | 0.268
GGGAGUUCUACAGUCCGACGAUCAGAUAUAACUGAUGGGCUUUGAACCUGGUUGGCCGGGGAAGCUGUAGGGGUGGAUAGAGCUGGCUUUCCUUCUGGGCUGUCUCCAUCUGACCCUACCCCUUCCAUGUCCCUGGAAUUCUCGGGUGCCAA | 0.329
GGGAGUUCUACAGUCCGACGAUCGCUUUCUUUAUCAACCUGCUCACUCACAAAUGUGUGCCCUCAGCCAGAGAGUAAGAAAGCCCAAAUCUGUUACAGCUUCUAAAAAAAUAGAUUUCUAAUUUGUCCUACUCUGGAAUUCUCGGGUGCCAA | 0.364

Series 4
Target: RING finger protein unkempt homolog, zinc fingers 1-6, GST-SBP tag (UNK, Homo sapiens, UniProt Q9C0B0, residues 30-357)
Method: RNA Bind-n-Seq
Form: RNA
Matrix: in vitro
Concentration: not given
Notes: RNA with constant flanks, human and mouse sites, ends assumed
Relative to: input RNA pool
Direction: higher = stronger binding
Target sequence (chain): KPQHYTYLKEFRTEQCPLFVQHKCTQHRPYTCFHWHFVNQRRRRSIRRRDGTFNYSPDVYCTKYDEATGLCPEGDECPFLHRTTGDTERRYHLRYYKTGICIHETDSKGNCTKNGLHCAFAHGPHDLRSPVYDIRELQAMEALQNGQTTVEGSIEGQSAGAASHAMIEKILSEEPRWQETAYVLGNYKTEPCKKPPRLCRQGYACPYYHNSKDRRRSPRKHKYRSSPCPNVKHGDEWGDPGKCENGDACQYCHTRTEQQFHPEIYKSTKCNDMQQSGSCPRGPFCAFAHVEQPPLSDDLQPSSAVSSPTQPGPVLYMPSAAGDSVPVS
Strand | bound/input enrichment
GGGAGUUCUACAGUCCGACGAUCUAUGUAAGAAAACAAGUUGAGAAGAUUAAAAAUUCCAUGGAUGGGAAGAAUGUGGACACAGUUCUGAUGGAACUUGGAGUACGUUUUCAUCGGCUUAUUUAUGAACAUCUUCAACAAUAUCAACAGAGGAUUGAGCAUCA | 0.212 ratio
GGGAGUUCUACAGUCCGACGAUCCAUUUUAGCAUUGGAAAAGCACCACUGAAAGAUGAACAGGAAAUGAGAGCAUCUCCCAAAAUAAGUCGAAAAUGUGCUAAUAGACACACCAGGCCCAAAAAAGAAAAAUCGAGUUUUCUUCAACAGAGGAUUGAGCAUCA | 0.139 ratio
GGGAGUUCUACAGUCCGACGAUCAUUGUGUACACUGGAACAGAAUUAGCACAAAAUCGAGAACUCCCUUUGAGAAAAGAUGAUGGUGUCGAUGCUCAGAGUGGAACCAAGAAAGAAGAUCUUAAUGACAAAGAGAAGAAGGAACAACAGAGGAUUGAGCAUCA | 0.235 ratio
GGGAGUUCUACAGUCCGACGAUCAAAUUUAAAAAUUCUUUCUGUUGUACAGAAUUAAAUGAAGAAAUCAAACAGUCUCAUUCUUUUAGUUUACAGACACCUUGUUCAAAAGGUAGUGAAUUAAGAAUGAUUAAUAAAAAUCCUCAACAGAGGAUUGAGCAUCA | 0.444 ratio
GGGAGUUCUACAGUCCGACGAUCCUGAAGAGUGUUUCUGAAAGAUCUAUCCAGCACUCCGAUGGCCAGCAACAACACCGCCAGCAUAGCACAAGCCAGGAAGCUGGUAGAGCAGCUUAAGAUGGAAGCCAAUAUCGACAGGAUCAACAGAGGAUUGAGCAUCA | 0.115 ratio
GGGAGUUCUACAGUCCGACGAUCAUCCAGGCCCUUCGCUGGGUGAGUGAGAAUAUUGCCUUCUUUGGAGGAGAUCCCCGUAGAAUUACUGUCUUUGGCUCUGGCAUCGGUGCAUCCUGUGUCAGUCUCCUUACACUGUCUCAUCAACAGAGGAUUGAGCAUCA | 0.211 ratio
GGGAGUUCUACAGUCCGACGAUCAUUUUUAGUAAAUGCAAGUAAGAACAUCAUCAAAGUUCACUUUGUAUUGUACCCUGUAAAACUGUGUGUUUGUGUGCUUUCAAAGAUGUUGGGAUUUUAUUUAUCUGGGGACAGUGUGUACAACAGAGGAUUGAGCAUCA | 0.62 ratio
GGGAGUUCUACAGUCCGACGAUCGAUUCUACCUCUGCAGUCAAAGAGAAAACAGCAACUUGCCACAGUUCCUCUUCUCCACCAAUAGAUGCAGCAUCCGCAGAGCCCUAUGGCUUCCGUGCCUCAGUGUUAUUCGAUACAAUGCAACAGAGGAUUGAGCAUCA | 0.153 ratio
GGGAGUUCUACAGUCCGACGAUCCAGACCUACAUCAACGGGCUCCUCACGGGCUACAGCUCCACGCUAUGGAUUGGCCUUAAUGACCUGGAUACCAGUGGAGGCUGGCAGUGGUCAGACAACUCACCCCUCAAGUACCUCAACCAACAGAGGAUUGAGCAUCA | 0.067 ratio
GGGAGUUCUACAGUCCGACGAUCCUCAAUCAAGAGGAUUCAGACAAUGAGAAAAUUGCCUUAUUGCAGAGCCUUCUAGAUGAUGCAAAUCUACGCAAGAAUGAGCUGGAGACGGAGAACAGGCUUGUGAAUCAGAGACUUCUACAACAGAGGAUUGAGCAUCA | 0.0705 ratio
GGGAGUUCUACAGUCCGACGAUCAACCUCGGUCGGAAAAGCGAACUGAGUCUAGACUUAGACAGUGAUGUUGUUAGAGAAACAGUGGACUCCCUUAAGCUGUUAGCACAAGGACAUGGUGUUGUGCUAUCAGAGAAUAUCAGUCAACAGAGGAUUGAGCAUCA | 0.213 ratio
